Assay results from different studies.
Protocols differ between the studies behind these lines.

| Structure (SMILES) | assay | test system | conditions | AUC(0-t) |
| --- | --- | --- | --- | --- |
| Cc1ccc(OCC(=O)N(Cc2cccs2)c2ccn[nH]2)cc1 |  | male Sprague-Dawley rat, plasma | intravenous, 1 mg/kg, single dose | 222 ng·h/mL |
| N#Cc1cnc2cc(OCC3CCNCC3)c(F)cc2c1Nc1cc(F)c(OCc2cccc(Cl)n2)cc1Cl |  | male Sprague-Dawley rat, plasma | oral, 300 mg/kg | 69900 ng·h/mL |
| COc1cc(NC(C)=O)c2c(c1O)-c1c(OC)c(OC)cc3c1C(C2)N(C)CC3 (centres unmarked) | HPLC | male Wistar rat, plasma | oral, 200 mg/kg | 57400 ng·h/mL |
| Cn1cc(-c2cc(N3CCCCS3(=O)=O)ccc2N[C@H]2CC[C@H](C)CC2)c2cc[nH]c2c1=O (stereo in doubt) |  | Sprague-Dawley rat, plasma | intravenous, 1 mg/kg | 300 ng·h/mL |
| CC1(C)CC[C@]2(C(=O)O[C@@H]3O[C@H](CO[C@@H]4O[C@H](CO)[C@@H](O)[C@H](O)[C@H]4O)[C@@H](O)[C@H](O)[C@H]3O)CC[C@]3(C)C(=CC[C@@H]4[C@@]5(C)CC[C@H](O[C@@H]6OC[C@H](O)[C@H](O)[C@H]6O)[C@@](C)(CO)[C@@H]5CC[C@]43C)[C@@H]2C1 |  | Sprague-Dawley rat, plasma | oral, 150 mg/kg | 3890 ng·h/mL |
| Cn1cc(-c2cc(N3CCCS3(=O)=O)ccc2N[C@H]2CC[C@H](C)CC2)c2cc[nH]c2c1=O |  | Sprague-Dawley rat, plasma | intravenous, 1 mg/kg | 255 ng·h/mL |
| COc1ccc(COc2c(OC)ccc3c2C[C@@H](C(=O)O)N(c2nc4ccc(F)cc4o2)C3)cc1 |  | male Sprague-Dawley rat, plasma | oral, 10 mg/kg | 6930 ng·h/mL |
| Cc1cc(/C=C2\CN(C(C)C)C/C(=C\c3cc(C)c(O)c(C)c3)C2=O)cc(C)c1O |  | female Sprague-Dawley rat, plasma | intravenous, 20 mg/kg | 1340 ng·h/mL |
| COc1c2c(cc3oc(CO)cc(=O)c13)O[C@H](C(C)(C)O)C2 |  | male Sprague-Dawley rat, plasma | oral, 2 mg/kg | 402 ng·h/mL |
| COC(=O)c1ccc2c(c1)NC(=O)/C2=C(\Nc1ccc2c(c1)CCN2C(=O)CN1CCOCC1)c1ccccc1 |  | Sprague-Dawley rat, plasma | oral, 10 mg/kg | 6410 ng·h/mL |
| CSCOC1C(=O)C2(C)C(OCSC)CC3OCC3(OC(C)=O)C2C(OC(=O)c2ccccc2)C2(O)CC(OC(=O)C(O)C(C=C(C)C)NC(=O)OC(C)(C)C)C(C)=C1C2(C)C (centres unmarked) |  | female Sprague-Dawley rat, plasma | intravenous, 2 mg/kg | 215 ng·h/mL |
| O=C(N[C@@H](CC1CCCCC1)C(=O)N[C@@H](C[C@H]1CCNC1=O)C(=O)C(=O)NC1CC1)OCc1cccc(Cl)c1 |  | female Sprague-Dawley rat, plasma | intravenous, 10 mg/kg, single dose | 20500 ng·h/mL |
| CC12CC3CC(C)(C1)CC(NC(=O)Nc1ccc(C(=O)N4CCC[C@H](C(N)=O)C4)cc1F)(C3)C2 |  | Sprague-Dawley rat, plasma | intravenous, 10 mg/kg | 3.9 µM·h |
| CC(=O)Oc1c2c(c3ccc4c(c3c1OC(C)=O)C=CC(=O)C4(C)C)OC[C@@H]2C |  | female Sprague-Dawley rat, serum | intravenous, 10 mg/kg | 15100 ng·h/mL |
| CC12CC3CC(C)(C1)CC(NC(=O)Nc1ccc(C(=O)N4CCCC(C(N)=O)C4)cc1)(C3)C2 (centres unmarked) |  | Sprague-Dawley rat, plasma | oral, 10 mg/kg | 0.31 µM·h |
| CCNC(=O)[C@@H]1CCCN1C(=O)[C@H](CCCNC(=N)N)NC(=O)[C@H](CC(C)C)NC(=O)[C@@H](CC(C)C)NC(=O)[C@H](Cc1ccc(O)cc1)NC(=O)[C@H](CO)NC(=O)[C@H](Cc1c[nH]c2ccccc12)NC(=O)[C@H](Cc1c[nH]cn1)NC(=O)[C@@H]1CCC(=O)N1 |  | male Sprague-Dawley rat, plasma | subcutaneous, 12.5 mg/kg, single dose | 9730 ng·h/mL |
| Nc1nc(Cl)nc2c1ncn2Cc1cc(OCC(F)F)cc(OC(F)F)c1 |  | Sprague-Dawley rat, plasma | intravenous, 2.5 mg/kg | 10100 ng·h/mL |
| CN1CCN(c2ccc(Nc3ncc(Cl)c(Nc4ccccc4P(C)(C)=O)n3)cc2Br)CC1 |  | male Sprague-Dawley rat, plasma | oral, 25 mg/kg | 3100 ng·h/mL |
| COc1ccc2c(c1OCc1ccccc1)C[C@@H](C(=O)O)N(c1nc3ccc(F)cc3o1)C2 |  | male Sprague-Dawley rat, plasma | oral, 10 mg/kg | 29400 ng·h/mL |
| CNC(=O)N[C@]1(C)CCC[C@@]2(C)C3CC[C@@]4(C)C[C@]3(CCC21)CC4=O (single isomer, unassigned) |  | male Sprague-Dawley rat, plasma | oral, 2 mg/kg | 70.9 ng·h/mL |
